Published values from different studies.
Each numbered part is a random draw from the data of one study; scales do not carry over between parts. Positions count from the first letter of the parent shown.

Block 1 — technique: universal PBM; molecule type: double-stranded DNA, one strand shown; medium: in vitro; tested at: 600 nM; direction: higher = stronger binding
Target: Sal-like protein 4, full length isoform A (SALL4, Homo sapiens, UniProt Q9UJQ4, residues 1-1053)
UniProt Q9UJQ4, sequence (whole entry, looked up): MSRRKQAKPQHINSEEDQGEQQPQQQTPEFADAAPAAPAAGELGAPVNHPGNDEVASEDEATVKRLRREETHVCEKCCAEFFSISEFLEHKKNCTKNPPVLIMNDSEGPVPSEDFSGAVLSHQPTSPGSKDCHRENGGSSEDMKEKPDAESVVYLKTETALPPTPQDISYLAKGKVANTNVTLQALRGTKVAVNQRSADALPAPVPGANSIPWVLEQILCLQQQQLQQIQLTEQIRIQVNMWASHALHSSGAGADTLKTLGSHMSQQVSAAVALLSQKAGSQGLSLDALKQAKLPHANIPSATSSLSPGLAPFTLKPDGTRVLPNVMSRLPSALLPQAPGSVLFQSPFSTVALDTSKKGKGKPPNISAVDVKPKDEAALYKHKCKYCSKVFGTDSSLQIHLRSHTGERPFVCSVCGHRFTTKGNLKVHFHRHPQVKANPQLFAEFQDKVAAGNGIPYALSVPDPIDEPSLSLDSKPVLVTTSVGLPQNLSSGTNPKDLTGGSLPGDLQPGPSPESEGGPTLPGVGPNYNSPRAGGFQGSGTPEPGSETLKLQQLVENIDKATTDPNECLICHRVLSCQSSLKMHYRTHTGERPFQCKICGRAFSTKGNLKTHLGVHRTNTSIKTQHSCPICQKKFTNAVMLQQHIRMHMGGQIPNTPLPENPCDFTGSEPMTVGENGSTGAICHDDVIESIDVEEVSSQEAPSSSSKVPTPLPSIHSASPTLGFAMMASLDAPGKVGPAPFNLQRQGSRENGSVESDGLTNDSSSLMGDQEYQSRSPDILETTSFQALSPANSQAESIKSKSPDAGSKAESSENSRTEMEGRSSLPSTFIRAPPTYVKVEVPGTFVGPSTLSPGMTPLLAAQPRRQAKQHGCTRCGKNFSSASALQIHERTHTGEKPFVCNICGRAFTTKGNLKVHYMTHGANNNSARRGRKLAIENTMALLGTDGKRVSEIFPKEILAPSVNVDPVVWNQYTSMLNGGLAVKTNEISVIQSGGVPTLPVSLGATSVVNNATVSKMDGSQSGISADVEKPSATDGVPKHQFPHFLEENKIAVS
Setting: 8-mer, flanks averaged, mean of replicates
Oligonucleotide	E-score
AACAAATC	0.278
GGAGAGAA	-0.153
CGTTAGAG	-0.00675
ACCGTTAA	0.125
ACCAGGAG	-0.225
CCCTACCG	-0.206
AAACGCAA	0.0885
AACGGCAA	0.0602
AAGAATAG	0.2
ATGATTCA	0.205
CCTATACA	0.207
GACTCTCA	-0.0999
CCTAGGCC	-0.239
GTACAGCA	-0.0397
AGCAACTA	0.198
GTTAGCAA	0.103
CATGTCAC	0.0713
ATTGCCCA	0.0698
ATCAGTCA	0.129
ACAAGACC	-0.0913
CGATCGCA	0.0227

Block 2 — target: CDC34 UBC core domain (UniProt P49427); technique: yeast two-hybrid; medium: yeast; setting: mostly zero background; baseline: not given; direction: higher = stronger interaction
B1: RNF149 RING domain (UniProt Q8NC42); chain EKGIDVDAENCAVCIENFKVKDIIRILPCKHIFHRICIDPWLLDHRTCPMCKLDVIKALGYW
B2: PEX2 RING domain (UniProt P28328); chain DNTLATSGKECALCGEWPTMPHTIGCEHIFCYFCAKSSFLFDVYFTCPKCGTEVHSLQPLK
B3: ANKIB1 RING domain (UniProt Q9P2G1); chain LSPGDLDTSLCDICMCSISVFEDPVDMPCGHDFCRGCWESFLNLKIQEGEAHNIFCPAYDCFQLVPVDIIE
B4: RNF5 RING domain (UniProt Q99942); chain ERGGAGATFECNICLETAREAVVSVCGHLYCWPCLHQWLETRPERQECPVCKAGISREKVVP
B5: TRIM35 RING domain (UniProt Q9UPQ4); chain PSRSFKEELLCAVCYDPFRDAVTLRCGHNFCRGCVSRCWEVQVSPTCPVCKDRASPADLRT
B6: TRIM3 RING domain (UniProt O75382); chain VQPMDKQFLVCSICLDRYQCPKVLPCLHTFCERCLQNYIPAQSLTLSCPVCRQTSILPEQGV
B7: RNF32 RING domain (UniProt Q9H0A6); chain SLLQGDSVQPCPICKEEFELRPQVLLSCSHVFHKACLQAFEKFTNKKTCPLCRKNQYQTRVIH
Construct (chain): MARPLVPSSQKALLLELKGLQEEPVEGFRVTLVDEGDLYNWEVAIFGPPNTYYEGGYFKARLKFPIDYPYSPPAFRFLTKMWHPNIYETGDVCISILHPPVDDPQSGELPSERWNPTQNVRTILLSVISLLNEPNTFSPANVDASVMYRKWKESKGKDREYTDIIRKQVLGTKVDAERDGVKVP
Sequence	lacZ reporter activity
B1 (RNF149 RING domain)	0
B2 (PEX2 RING domain)	0
KRQCSDVDDICSICQAEFQKPILLICQHIFCEECMTLWFNREKTCPLCRTVISDHINKW (RNFT1 RING domain (UniProt Q5M7Z0))	0
B3 (ANKIB1 RING domain)	0
ISNDSETLEECMVCSDMKRDTLFGPCGHIATCSLCSPRVKKCLICKEQVQSRTKIE (MIB1 RING domain (UniProt Q86YT6))	0
B4 (RNF5 RING domain)	0
B5 (TRIM35 RING domain)	0
B6 (TRIM3 RING domain)	0
B7 (RNF32 RING domain)	0

Block 3 — target: FOSL2, bZIP domain (human); technique: DHFR protein complementation; medium: yeast; baseline: wild-type JUN-FOS pair; direction: higher = stronger binding
Setting: single substitutions, most at no-binding floor
Starting sequence: JUN, bZIP domain (human); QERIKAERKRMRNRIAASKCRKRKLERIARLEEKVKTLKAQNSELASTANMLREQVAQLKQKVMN; partner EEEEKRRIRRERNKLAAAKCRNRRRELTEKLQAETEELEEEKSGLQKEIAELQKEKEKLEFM
Substitution	binding fitness [natural log]
S43N	0.0309
A49Y	-0.236
L45K	-1.15
T48H	0.0617
R53S	-0.414
R30C	0.0775
K39V	-0.246
A46I	-0.0671
K39C	-0.482
R53F	-0.754
S43Y	-0.038
V56A	-1.2
A46E	0.000514
L45H	-0.832
T37V	0.0736
A57E	0.0778

Block 4 — technique: RNA Bind-n-Seq; molecule type: RNA; medium: in vitro; tested at: not given; baseline: input RNA pool; direction: higher = stronger binding
Target: RING finger protein unkempt homolog, zinc fingers 1-6, GST-SBP tag (UNK, Homo sapiens, UniProt Q9C0B0, residues 30-357)
Setting: RNA with constant flanks, human and mouse sites, ends assumed
Target sequence (chain): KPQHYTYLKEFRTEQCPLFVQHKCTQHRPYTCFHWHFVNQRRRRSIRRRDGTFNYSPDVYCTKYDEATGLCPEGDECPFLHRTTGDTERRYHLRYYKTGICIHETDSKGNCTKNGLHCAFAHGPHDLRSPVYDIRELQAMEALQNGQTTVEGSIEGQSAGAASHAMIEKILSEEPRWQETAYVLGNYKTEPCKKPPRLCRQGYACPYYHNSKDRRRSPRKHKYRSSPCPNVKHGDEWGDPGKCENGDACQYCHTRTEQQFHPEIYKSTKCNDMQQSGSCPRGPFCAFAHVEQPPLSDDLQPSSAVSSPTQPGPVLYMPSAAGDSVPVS
Oligonucleotide	bound/input enrichment
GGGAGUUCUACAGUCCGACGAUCAAUAAGCUACAUAAUUCCGAAGUUAUAUUUCCUCUACCAUUUCCGUAAUUCUUACUCCAUUUUAGAAAACUUUGUUAGGCCAAAGACAAAUAGUAGGCAAGAUGGCACAGGGCAUGAAGUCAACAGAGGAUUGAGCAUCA	2.19 ratio
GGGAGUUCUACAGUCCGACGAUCGACCGGAACCAUCUUGAGGUGCUGCCUCCUGAAAUCGGAGGCUGUGUGGCCCUUAGUGUCCUCUCUUUGAGAGACAAUCGCCUGGCUGUCCUCCCUCCUGAGCUUGCCCAUACCGCUGAGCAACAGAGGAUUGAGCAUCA	0.0971 ratio
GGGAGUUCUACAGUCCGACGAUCGUACUGCUGGUCCUGUACCAGAAACAUUUUCUUUUAUUGUUACUUGCUUUUUAAACUUUGUUUAGCCACUUAAAAUCUGCUUAUGGCACAAUUUGCCUCAAAAUCCAUUCCAAGUUGUAUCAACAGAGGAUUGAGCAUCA	1.42 ratio
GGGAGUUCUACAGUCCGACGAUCAGCAAAAAUCAAAUUAAAGUAGAUCUUGUAGAUGAGAAUUUUACAGAAUUAAGAGGAGAAAUAGCAGGACCUCCAGACACACCAUAUGAAGGAGGAAGAUACCAACUAGAGAUAAAAAUACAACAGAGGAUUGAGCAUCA	18.5 ratio
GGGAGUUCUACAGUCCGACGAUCAUGUCUGCCAGAACACAAUUUAUAUGCCGAAUUAUUGGCUCCAUUAAACUUUUUAAAAACUUUAGCACUGGUUACUUUUUUCCAUUGCAUUCAAUAUGUAGCACCUCCUCACCUCAUGAGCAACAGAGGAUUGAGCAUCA	7.33 ratio
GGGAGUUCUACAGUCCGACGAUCCCCUUGCCUCACCUGUAUUGCUGUGGAUGUGUUUUGUGGGUUUUUCAUUCGAUUUUACAAAAUAGGGAAAGGCACUUCCAGUUGUAUUUAGUAGGCAGUUGUUGUGAAUCAUUUUUUUCUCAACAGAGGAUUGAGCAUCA	0.847 ratio
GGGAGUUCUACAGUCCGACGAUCUUUAUUUACGUCUUAUUUAUGGUUGAGGAAUUCCGCAAAGAGCCCGUGGAAAACAUGGAUGACGUCAUCUACUACGUGAAUGGCACUUAUCGUCUGCUGGAGUUUGUUGUGGCCCUCUGUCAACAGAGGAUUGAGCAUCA	0.28 ratio
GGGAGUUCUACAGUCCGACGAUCGUGUUUGAACUAUCCAGGCUCAGGACAGCCUCUUGAAAAAAAAUUUUUUAUUAAUAAAGCGGAUUUGAGUGGGAUCUUUUUCCUAAUCGAUUACGGGCCCACACGUAUGGGAAGAAUUCUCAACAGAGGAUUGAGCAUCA	0.38 ratio
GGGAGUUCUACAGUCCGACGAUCACCCGGGGCACCUCCAUCAAGGAAUUCCGGGAGAUGACCCUCAGCUUCCUCAAGGCGAACCUGGGAGACCUGCCUUCCCUGCCGGCGCUGGUUGGCCAGGUCCUGCUCAUGGCUGACUUCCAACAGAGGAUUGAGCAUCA	0.084 ratio
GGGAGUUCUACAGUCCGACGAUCAAAAAAAAAGCUGAACAGCUGCAGAGGAAGACACGUUAUACCCUAACCAUCUUGGAUGCUGGGCUUUGUUAUGCUGUAAUUCAUAAGGCUCUGUUUUAUCAGAGAUUAUGGAGCAAGAAACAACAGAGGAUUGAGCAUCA	0.106 ratio
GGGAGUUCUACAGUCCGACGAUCCUUAUUGUAGAUGGCAGAGGCAAAGCAACAAUUUCUAAUGAUGGGGCCACAAUUCUGAAACUUCUUGAUGUUGUCCAUCCUGCAGCAAAGACUUUGGUAGACAUUGCCAAAUCCCAAGAUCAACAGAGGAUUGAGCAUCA	0.206 ratio

Block 5 — target: CCNE2, cyclin fold, Cln2 fusion (human); technique: yeast growth competition, sequencing; medium: yeast; setting: weak parent motif; baseline: not given; direction: higher = stronger binding
Starting sequence: PKMYT1 docking peptide (human); SFEPRNLLSLFED; partner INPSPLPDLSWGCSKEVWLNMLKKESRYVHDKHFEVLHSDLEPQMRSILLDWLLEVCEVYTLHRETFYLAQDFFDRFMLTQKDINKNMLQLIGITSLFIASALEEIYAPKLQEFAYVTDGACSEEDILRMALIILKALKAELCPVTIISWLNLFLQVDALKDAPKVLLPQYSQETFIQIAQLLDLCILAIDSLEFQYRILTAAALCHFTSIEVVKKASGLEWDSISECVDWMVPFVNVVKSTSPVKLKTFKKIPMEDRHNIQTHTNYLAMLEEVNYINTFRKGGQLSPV
Substitution	normalised enrichment score
SFEPRNELSLFED [L7E]	-0.139
SFEPRNLLSLFEV [D13V]	-0.104
SFEPQNLLSLFED [R5Q]	0.174
SFEPRNLRSLFED [L8R]	0.467
SFEPRNLLSFFED [L10F]	-0.126
SFEPRNLLLLFED [S9L]	0.507
SFEPMNLLSLFED [R5M]	0.535
SFEPRNLLSLQED [F11Q]	-0.428
SFEPRLLLSLFED [N6L]	0.116
SFEPRNLLPLFED [S9P]	1.13
SFEPRNLLSLFEW [D13W]	-0.357
SFFPRNLLSLFED [E3F]	0.42
SFEPRNGLSLFED [L7G]	-0.252
SFEPRNQLSLFED [L7Q]	-0.776
SFEPRTLLSLFED [N6T]	-0.0184
SIEPRNLLSLFED [F2I]	-0.95

Block 6 — technique: DHFR PCA, deep sequencing; medium: yeast; with: (+)-ABA 0.39 µM; baseline: wild-type fitted maximum; direction: higher = stronger binding
Target: ABI1, truncated, D143A, DHFR fusion (Arabidopsis thaliana)
Setting: methotrexate growth selection, single substitutions
Starting sequence: PYL1, truncated, DHFR fusion (Arabidopsis thaliana); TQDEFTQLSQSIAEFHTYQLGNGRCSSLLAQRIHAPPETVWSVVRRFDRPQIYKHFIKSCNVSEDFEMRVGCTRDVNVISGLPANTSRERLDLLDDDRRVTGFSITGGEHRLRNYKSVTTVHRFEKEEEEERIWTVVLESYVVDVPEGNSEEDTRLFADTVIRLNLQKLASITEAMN
Substitution	relative binding score
R163E	9.57%
A30F	40.4%
S26G	33.4%
P50V	-4.62%
R99S	2%
M176N	10.5%
S27I	-3.65%
Y18T	4.91%
P146A	27%
I57F	-5.27%
N61K	65.5%
I133A	55.8%
T1M	47.5%
R45T	0.155%
S42A	49.9%
L20N	44.4%
L93D	0.656%
S104M	-10.4%
H16N	-3.81%
Y53I	0.929%

A few entries again (block 5):
Substitution	normalised enrichment score
SFEPRNLRSLFED [L8R]	0.467
SFFPRNLLSLFED [E3F]	0.42
SFEPRLLLSLFED [N6L]	0.116
SFEPRNGLSLFED [L7G]	-0.252
SFEPQNLLSLFED [R5Q]	0.174
SFEPRNQLSLFED [L7Q]	-0.776
SFEPRNLLSLFEW [D13W]	-0.357
SFEPRNLLLLFED [S9L]	0.507
SFEPRNLLSLQED [F11Q]	-0.428
SFEPMNLLSLFED [R5M]	0.535
SFEPRNELSLFED [L7E]	-0.139
SFEPRNLLSFFED [L10F]	-0.126
SFEPRNLLPLFED [S9P]	1.13
SIEPRNLLSLFED [F2I]	-0.95
